Results of several laboratories.
Each line is one published result; not all experiments were run side by side. ± marks the error that the study gave.

CNC(C)Cc1ccc2c(c1)OCO2 (stereo not drawn)
IC50 (Sodium-dependent serotonin transporter (SLC6A4, Homo sapiens, UniProt P31645)): 13.7 ± 1.6 µM

COc1cc(CCNC(C)c2ccccc2O)c(OC)cc1C#N (stereo not drawn)
Ki (5-hydroxytryptamine receptor 2A (HTR2A, Homo sapiens, UniProt P28223); binding): 0.0074 µM

Brc1ccc2c(c1)C(c1ccccn1)=NCc1c(-c3cnco3)ncn1-2
IC50 (Gamma-aminobutyric acid receptor subunit gamma-2 / Gamma-aminobutyric acid receptor subunit alpha-5, with β3 subunit (Homo sapiens, UniProt P18507+P31644)): 0.435 µM

OCCCCO
IC50 (Cytochrome P450 2E1 (CYP2E1, Homo sapiens, UniProt P05181); inhibitor; 30 min, pH 7.4): 15000 µM

OC1(c2ccc(Cl)cc2)c2ccccc2C2=NCCN21 (stereo not drawn)
Kd (snf (Aquifex aeolicus, UniProt O67854, G24D/I359G/N21Y/S256G/T254S); saturation binding): 0.295 ± 0.007 µM

CC[C@@H](NC(=O)CNC(=O)[C@@H](CC(C)C)NC(=O)CNC(=O)[C@H](N)CCC(N)=O)C(=O)N[C@H](CC(=O)O)C(=O)N[C@H](CCC(=O)O)C(=O)N[C@H](CCSC)C(=O)N[C@H](CC(C)C)C(=O)N[C@H](CCC(N)=O)C(=O)NCC(=O)N[C@H](Cc1ccccc1)C(=O)N[C@H](C)C(=O)N[C@@H](C(=O)N[C@H](C)C(=O)N[C@@H](C(=O)N[C@H](CCCCN)C(=O)N[C@H](CCSC)C(=O)NCC(=O)N[C@H](C)C(=O)N[C@@H](C(=O)N[C@H](CCCCN)C(=O)N[C@H](C)C(=O)N[C@H](CC(=O)O)C(=O)O)[C@H](C)O)C(C)C)C(C)C
Ki (hemagglutinin influenza A/California/07/2009 H1N1): 19 µM

Nc1ncnc2c1ncn2[C@@H]1O[C@H](COP(=O)(O)OP(=O)(O)OP(=O)(O)O)[C@@H](O)[C@H]1O
Kd (Hepatocyte growth factor receptor (MET, Homo sapiens, UniProt P08581, C1091S/C1146S/K1232C/L1195V); binding): 61 ± 2 µM

CC[C@@H](NC(=O)CNC(=O)[C@@H](CC(C)C)NC(=O)CNC(=O)[C@H](N)CCC(N)=O)C(=O)N[C@H](CC(=O)O)C(=O)N[C@H](CCC(=O)O)C(=O)N[C@H](CCSC)C(=O)N[C@H](CC(C)C)C(=O)N[C@H](CCC(N)=O)C(=O)NCC(=O)N[C@H](Cc1ccccc1)C(=O)N[C@H](C)C(=O)N[C@@H](C(=O)N[C@H](C)C(=O)N[C@@H](C(=O)N[C@H](CCCCN)C(=O)N[C@H](CCSC)C(=O)NCC(=O)N[C@H](C)C(=O)N[C@H](Cc1ccc(O)cc1)C(=O)N[C@H](CCCCN)C(=O)N[C@H](C)C(=O)N[C@H](CC(=O)O)C(=O)O)C(C)C)C(C)C
Ki (hemagglutinin influenza A/California/07/2009 H1N1): 13 µM

NC(=O)c1cccnc1
Ki (Nan-Iav channel Halyomorpha halys; binding): 108 µM

Excerpt of the above:
OCCCCO
IC50 (Cytochrome P450 2E1 (CYP2E1, Homo sapiens, UniProt P05181); inhibitor; 30 min, pH 7.4): 15000 µM
